Published values pooled from the literature.
± gives the spread as reported.
Organism: Escherichia coli

For `CC[C@H](C)[C@H](NC(=O)[C@H](CCCCN)NC(=O)[C@H](CC(=O)O)NC(=O)[C@H](CC(C)C)NC(=O)[C@@H](NC(=O)[C@H](CC(N)=O)NC(=O)[C@H](CC(C)C)NC(=O)[C@@H](NC(=O)[C@H](Cc1ccccc1)NC(=O)[C@H](CCCCN)NC(=O)[C@H](CCCCN)NC(=O)CNC(=O)[C@H](C)NC(=O)[C@H](CC(N)=O)NC(=O)[C@H](CCCCN)NC(=O)[C@H](Cc1ccccc1)NC(=O)[C@H](CC(N)=O)NC(=O)[C@H](CCC(=O)O)NC(=O)[C@H](Cc1c[nH]c2ccccc12)NC(=O)[C@H](CC(C)C)NC(=O)[C@@H](N)CO)[C@@H](C)CC)[C@@H](C)CC)C(=O)N[C@@H](CCCNC(=N)N)C(N)=O`, the MIC was 2 µM (ATCC 8739; overnight, 37 °C, together with: 2 mM CaCl2).
The MIC of `CC1(C)SC2C(NC(=O)C(NC(=O)C3=C(O)C(Cc4ccco4)NC3=O)c3ccccc3)C(=O)N2C1C(=O)O` (centres unmarked) is reported as 12.5 µg/mL (broth microdilution; Keio mutant JW5086-3; 18 h, ferrienterobactin permease gene).
`CC[C@H](C)[C@H](NC(=O)CNC(=O)[C@H](CC(=O)O)NC(=O)[C@H](CCCNC(=N)N)NC(=O)[C@@H](NC(=O)[C@H](CC(N)=O)NC(=O)[C@H](CCCNC(=N)N)NC(=O)CNC(=O)[C@@H](NC(=O)[C@H](CCC(=O)O)NC(=O)[C@H](CCC(=O)O)NC(=O)[C@@H](NC(=O)[C@H](CCCCN)NC(=O)[C@H](CCCCN)NC(=O)[C@H](Cc1ccccc1)NC(=O)[C@@H](NC(=O)[C@H](CCCCN)NC(=O)[C@H](Cc1c[nH]c2ccccc12)NC(=O)[C@@H](N)CCCNC(=N)N)[C@@H](C)CC)[C@@H](C)CC)C(C)C)C(C)C)C(=O)N[C@H](C(=O)N[C@@H](CCCCN)C(=O)N[C@@H](C)C(=O)NCC(=O)N1CCC[C@H]1C(=O)N[C@@H](C)C(=O)N[C@H](C(=O)N[C@@H](C)C(=O)N[C@H](C(=O)N[C@H](C(=O)NCC(=O)N[C@@H](CCC(N)=O)C(=O)N[C@@H](C)C(=O)N[C@@H](C)C(=O)N[C@H](C(=O)N[C@H](C(=O)N[C@H](C(=O)N[C@@H](CCCCN)C(N)=O)C(C)C)C(C)C)[C@@H](C)O)C(C)C)C(C)C)C(C)C)[C@@H](C)CC` has an MIC of 2 µM (K1 ATCC 700973, Mueller-Hinton broth; 16 h, 37 °C; growth inhibition over 99%).
With `CO/N=C(\C(=O)N[C@@H]1C(=O)N2C(C(=O)O)=C(COC(C)=O)CS[C@H]12)c1csc(N)n1` the MIC was less than 1.75 µg/mL (BL21(DE3) carrying Ftu-1).
`CC[C@H](C)[C@H](N)C(=O)N[C@@H](CC(C)C)C(=O)NCC(=O)N[C@H](CCCNC(=N)N)C(=O)N[C@H](C(=O)N[C@H](C(=O)N[C@@H](CCCCN)C(=O)NCC(=O)N[C@H](C(=O)N[C@@H](CCCCN)C(=O)N[C@@H](CC(=O)O)C(=O)N[C@H](C(=O)N[C@@H](CC(C)C)C(N)=O)[C@@H](C)CC)[C@@H](C)CC)C(C)C)[C@@H](C)CC` has an MIC of 25 µM (broth microdilution; ATCC 25922, Mueller-Hinton broth; 16 h, 37 °C).
The MIC of `CC[C@H](C)[C@H](NC(=O)[C@H](CCCNC(=N)N)NC(=O)[C@H](CCCNC(=N)N)NC(=O)[C@H](CCCNC(=N)N)NC(=O)[C@H](CCCNC(=N)N)NC(=O)[C@H](CC(C)C)NC(=O)[C@H](CCCNC(=N)N)NC(=O)[C@H](CO)NC(=O)[C@@H](N)CO)C(=O)N[C@H](C(=O)N[C@@H](CC(C)C)C(=O)N[C@@H](CCCNC(=N)N)C(=O)N[C@@H](CCCNC(=N)N)C(=O)N[C@@H](CCCNC(=N)N)C(=O)N[C@@H](CCCNC(=N)N)C(=O)N[C@@H](Cc1ccccc1)C(=O)N[C@@H](CO)C(=O)N[C@@H](C)C(=O)N[C@@H](Cc1ccc(O)cc1)C(N)=O)C(C)C` is reported as 64 µM (checkerboard; 24 h, 37 °C, alone, rifampicin plate).
For `CC1(C)S[C@@H]2[C@H](NC(=O)C(C(=O)O)c3ccccc3)C(=O)N2[C@H]1C(=O)O` (some centres unmarked), the MIC was 3.12 µg/mL (broth microdilution; Keio mutant JW5195-1; 18 h).
The MIC of `CC[C@@H](C)[C@@H](N)C(=O)N[C@@H](C(=O)N[C@H](Cc1ccc(O)cc1)C(=O)N[C@@H](C(=O)N[C@H](CCN)C(=O)N[C@H](CC(C)C)C(=O)N[C@H](CO)C(=O)N[C@H](CCN)C(=O)N[C@@H](C(=O)N[C@H](CCN)C(=O)N[C@H](Cc1c[nH]cn1)C(=O)N[C@H](CCN)C(=O)N[C@H](C)C(=O)N[C@H](CCN)C(=O)N[C@H](CCN)C(N)=O)[C@H](C)CC)[C@H](C)CC)[C@H](C)CC` is reported as 4 µg/mL (ATCC 25922, Mueller-Hinton broth; 20 h, 37 °C).
With `CCCCC(=O)N1C(=O)/C(=C(/C)O)C(=O)C1CC(C)C` (centres unmarked) the MIC was 6.25 µg/mL (K12 ΔtolC).
For `CCCCCC(=O)N[C@@H](CCCNC(=N)N)C(=O)N[C@@H](CCCNC(=N)N)C(=O)N[C@@H](CCCNC(=N)N)C(=O)N[C@@H](CCCNC(=N)N)C(=O)N[C@H](C(=O)N[C@@H](CC(C)C)C(=O)N[C@H](C(=O)N[C@@H](CCCNC(=N)N)C(=O)N[C@@H](CCCNC(=N)N)C(=O)N[C@H](C(=O)N[C@@H](CC(C)C)C(=O)N[C@@H](CCCNC(=N)N)C(=O)N[C@@H](CC(C)C)C(=O)N[C@@H](CCCNC(=N)N)C(=O)N[C@@H](CO)C(=O)N[C@@H](CO)C(=O)N[C@@H](C)C(=O)N[C@@H](Cc1ccc(O)cc1)C(N)=O)C(C)C)[C@@H](C)CC)[C@@H](C)CC`, the MIC was 16 µM (checkerboard; 24 h, 37 °C, alone, azithromycin plate).
For `CC(C)C[C@H](NC(=O)[C@H](Cc1ccc(O)cc1)NC(=O)[C@@H]1CCCN1C(=O)[C@@H]1CCCN1C(=O)[C@H](CCCCN)NC(=O)[C@H](CC(=O)O)NC(=O)[C@@H](N)C(C)C)C(=O)N1CCC[C@H]1C(=O)N[C@@H](CCCNC(=N)N)C(=O)N1CCC[C@H]1C(=O)N[C@@H](CCCNC(=N)N)C(=O)N1CCC[C@H]1C(=O)N1CCC[C@H]1C(=O)N[C@@H](CCCNC(=N)N)C(N)=O`, the MIC was 8 µg/mL (broth microdilution; MRE600; 16 h, 37 °C, 25% Mueller-Hinton broth).
`CC[C@H](C)[C@H](NC(=O)[C@H](CCCCN)NC(=O)[C@H](CCCCN)NC(=O)CNC(=O)[C@H](CCCCN)NC(=O)[C@H](CC(C)C)NC(=O)[C@H](CCCCN)NC(=O)[C@H](CCCNC(=N)N)NC(=O)[C@@H](NC(=O)[C@H](CC(C)C)NC(=O)[C@H](CCCNC(=N)N)NC(=O)[C@@H](N)CCCNC(=N)N)[C@@H](C)CC)C(=O)N[C@@H](Cc1ccc(O)cc1)C(=O)N[C@@H](CC(C)C)C(=O)N[C@@H](Cc1ccc(O)cc1)C(=O)N[C@@H](Cc1ccccc1)C(=O)N[C@@H](CCCCN)C(=O)N[C@@H](CC(C)C)C(=O)N[C@@H](CCC(N)=O)C(=O)N[C@@H](CC(C)C)C(=O)N[C@@H](CC(C)C)C(=O)N[C@@H](CCCCN)C(=O)N[C@@H](CCCCN)C(N)=O` gave an MIC of 16 µM (KCTC 1682, Mueller-Hinton broth; together with: 1 mM MgCl2).
For `CC[C@H](C)[C@H](NC(=O)CN)C(=O)NCC(=O)N[C@@H](C)C(=O)N[C@H](C(=O)N[C@@H](CC(C)C)C(=O)N[C@@H](CCCCN)C(=O)N[C@H](C(=O)N[C@@H](CC(C)C)C(=O)N[C@H](C(=O)N[C@H](C(=O)NCC(=O)N[C@@H](CC(C)C)C(=O)N1CCC[C@H]1C(=O)N[C@@H](C)C(=O)N[C@@H](CC(C)C)C(=O)N[C@H](C(=O)N[C@@H](CO)C(=O)N[C@@H](Cc1c[nH]c2ccccc12)C(=O)N[C@H](C(=O)N[C@@H](CCCCN)C(=O)N[C@@H](CCCNC(=N)N)C(=O)N[C@@H](CCCCN)C(=O)N[C@@H](CCCNC(=N)N)C(=O)N[C@@H](CCC(N)=O)C(=O)N[C@@H](CCC(N)=O)C(N)=O)[C@@H](C)CC)[C@@H](C)CC)[C@@H](C)O)[C@@H](C)O)C(C)C)C(C)C`, the MIC was 8 µM (KCTC 1682; 16 h, 37 °C, Mueller-Hinton broth).
With `CC(C)Oc1c(NC(=O)c2ccc(NC(=O)[C@H](CC(N)=O)NC(=O)c3ccc(/N=N/c4ccc(C#N)cc4)cc3)cc2)ccc(C(=O)Nc2ccc(C(=O)O)cc2)c1O` the MIC was 0.64 µg/mL (BW25113; 18 h, 37 °C, dark-adapted state).
`CC[C@H](C)[C@H](NC(=O)[C@H](CCCNC(=N)N)NC(=O)[C@H](CCC(N)=O)NC(=O)[C@@H](NC(=O)[C@@H](NC(=O)[C@H](CCC(N)=O)NC(=O)[C@H](C)N)[C@@H](C)CC)C(C)C)C(=O)N[C@@H](CCCCN)C(=O)N[C@@H](CC(=O)O)C(=O)N[C@@H](Cc1ccccc1)C(=O)N[C@@H](CC(C)C)C(=O)N[C@@H](CCCNC(=N)N)C(N)=O` has an MIC of 240 ± 86 µM (broth microdilution; K12; 16 h, 37 °C).
`CC(C)Oc1c(NC(=O)c2ccc(NC(=O)[C@H](CC(N)=O)NC(=O)c3ccc(NC(=O)c4ccc(C#N)cc4)cc3)cc2)ccc(C(=O)Nc2ccc(C(=O)O)cc2)c1O` has an MIC of 0.06 µg/mL (K12 ΔtolC).
For `C[C@@H](O)[C@H]1C(=O)N2C(C(=O)O)=C(SCCN=CN)C[C@H]12`, the MIC was greater than 128 µM (NCCP 16284 carbapenem-resistant, Mueller-Hinton broth; 16 h, 37 °C).
With `CC[C@H](C)[C@H](NC(=O)[C@H](CCCCN)NC(=O)[C@H](CCCCN)NC(=O)[C@H](CC(C)C)NC(=O)[C@H](CCCCN)NC(=O)[C@H](CCCCN)NC(=O)[C@H](Cc1ccccc1)NC(=O)[C@H](Cc1ccccc1)NC(=O)[C@H](CCCNC(=N)N)NC(=O)[C@H](CCCNC(=N)N)NC(=O)[C@@H](NC(=O)[C@H](CCCCN)NC(=O)[C@H](CCCNC(=N)N)NC(=O)[C@@H](NC(=O)[C@@H](N)Cc1ccc(O)cc1)[C@@H](C)CC)[C@@H](C)CC)C(=O)N[C@@H](CC(C)C)C(=O)N[C@@H](CCCCN)C(=O)N[C@@H](CCCCN)C(N)=O` the MIC was 1.54 µM (BL21(DE3), Mueller-Hinton broth; 20 h).
For `CC1(C)CC[C@]2(C(=O)O)CC[C@]3(C)C(=CC[C@@H]4[C@@]5(C)CC[C@H](O)C(C)(C)[C@@H]5CC[C@]43C)[C@@H]2C1`, the MIC was 512 µg/mL (ZJ487, NDM-1/MCR-1).
`C[C@H]1COc2c(N3CCN(C)CC3)c(F)cc3c(=O)c(C(=O)O)cn1c23` gave an MIC of greater than 8 µg/mL (1191008, multidrug-resistant).

Some of these lines once more:
For `CC[C@H](C)[C@H](NC(=O)CN)C(=O)NCC(=O)N[C@@H](C)C(=O)N[C@H](C(=O)N[C@@H](CC(C)C)C(=O)N[C@@H](CCCCN)C(=O)N[C@H](C(=O)N[C@@H](CC(C)C)C(=O)N[C@H](C(=O)N[C@H](C(=O)NCC(=O)N[C@@H](CC(C)C)C(=O)N1CCC[C@H]1C(=O)N[C@@H](C)C(=O)N[C@@H](CC(C)C)C(=O)N[C@H](C(=O)N[C@@H](CO)C(=O)N[C@@H](Cc1c[nH]c2ccccc12)C(=O)N[C@H](C(=O)N[C@@H](CCCCN)C(=O)N[C@@H](CCCNC(=N)N)C(=O)N[C@@H](CCCCN)C(=O)N[C@@H](CCCNC(=N)N)C(=O)N[C@@H](CCC(N)=O)C(=O)N[C@@H](CCC(N)=O)C(N)=O)[C@@H](C)CC)[C@@H](C)CC)[C@@H](C)O)[C@@H](C)O)C(C)C)C(C)C`, the MIC was 8 µM (KCTC 1682; 16 h, 37 °C, Mueller-Hinton broth).
For `CC[C@H](C)[C@H](NC(=O)[C@H](CCCCN)NC(=O)[C@H](CC(=O)O)NC(=O)[C@H](CC(C)C)NC(=O)[C@@H](NC(=O)[C@H](CC(N)=O)NC(=O)[C@H](CC(C)C)NC(=O)[C@@H](NC(=O)[C@H](Cc1ccccc1)NC(=O)[C@H](CCCCN)NC(=O)[C@H](CCCCN)NC(=O)CNC(=O)[C@H](C)NC(=O)[C@H](CC(N)=O)NC(=O)[C@H](CCCCN)NC(=O)[C@H](Cc1ccccc1)NC(=O)[C@H](CC(N)=O)NC(=O)[C@H](CCC(=O)O)NC(=O)[C@H](Cc1c[nH]c2ccccc12)NC(=O)[C@H](CC(C)C)NC(=O)[C@@H](N)CO)[C@@H](C)CC)[C@@H](C)CC)C(=O)N[C@@H](CCCNC(=N)N)C(N)=O`, the MIC was 2 µM (ATCC 8739; overnight, 37 °C, together with: 2 mM CaCl2).
